Results collected from several papers.
Every numbered part comes from another study and shows a few of its results, in no order.

Study 1 — technique: universal PBM; form: double-stranded DNA, one strand shown; medium: in vitro; tested at: not given; reading: higher = stronger binding; quantity: E-score
Target: Sal-like protein 4, full length isoform B (SALL4, Homo sapiens, UniProt Q9UJQ4-2, residues 1-616)
Notes: 8-mer, flanks averaged, mean of replicates
Construct (chain): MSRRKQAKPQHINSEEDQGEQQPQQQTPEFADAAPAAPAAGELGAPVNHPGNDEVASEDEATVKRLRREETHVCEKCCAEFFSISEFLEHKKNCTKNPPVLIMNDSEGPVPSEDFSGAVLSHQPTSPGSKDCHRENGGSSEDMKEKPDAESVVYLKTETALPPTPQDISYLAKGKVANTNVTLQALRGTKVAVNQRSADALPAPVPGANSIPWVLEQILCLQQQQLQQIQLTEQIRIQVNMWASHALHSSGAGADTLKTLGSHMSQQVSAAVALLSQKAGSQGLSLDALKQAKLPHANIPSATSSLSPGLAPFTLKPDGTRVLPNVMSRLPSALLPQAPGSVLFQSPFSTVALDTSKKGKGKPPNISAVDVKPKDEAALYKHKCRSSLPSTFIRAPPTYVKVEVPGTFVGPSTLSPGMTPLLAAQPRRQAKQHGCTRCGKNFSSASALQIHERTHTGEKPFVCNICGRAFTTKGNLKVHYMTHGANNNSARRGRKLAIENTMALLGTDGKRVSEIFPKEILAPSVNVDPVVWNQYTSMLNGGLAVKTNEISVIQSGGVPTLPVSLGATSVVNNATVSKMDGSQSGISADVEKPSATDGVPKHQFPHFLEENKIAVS
Oligonucleotide = GAGAGACA; result = -0.0737
Oligonucleotide = ATGTGGCA; result = -0.0762
Oligonucleotide = ATTGAGGC; result = 0.0483
Oligonucleotide = AATTGCAT; result = 0.252

Study 2 — technique: protein-binding microarray; form: double-stranded DNA, one strand shown; medium: in vitro; tested at: 940 nM top; notes: 60-bp whole probe; together with: salmon DNA 0.4 mg/ml; reference: random background probes; reading: higher = stronger binding; quantity: fitted relative affinity
Target: Interferon regulatory factor 5, full length, phosphomimetic (IRF5, Homo sapiens, UniProt Q13568-2, residues 1-514, S451D/S453D/S456D/S462D)
Oligonucleotide = GCCTAGCACTCACCTTTACTTTCTTTACTGTGCTAGGTCTTGATTCGCTTGACGCTGCTG; result = 2.32 z-score
Oligonucleotide = GCCTAGCACCACCCTTGGAAGTATGACTCTGTGCTAGTCTTGATTCGCTTGACGCTGCTG; result = -0.105 z-score
Oligonucleotide = GCCTAGCACGACGATATCAGTATCGGGACGTGCTAGGTCTTGATTCGCTTGACGCTGCTG; result = 1.65 z-score
Oligonucleotide = GCCTAGCACGTAGATGCCTTTCTCTTGGAGTGCTAGGTCTTGATTCGCTTGACGCTGCTG; result = 0.28 z-score

Study 3 — technique: protein binding microarray; form: double-stranded DNA, one strand shown; medium: in vitro; tested at: not given; reference: not given; reading: higher = stronger binding; quantity: E-score
Target: Histone acetyltransferase KAT6A, both winged helices, GST fusion (KAT6A, Homo sapiens, UniProt Q92794, residues 1-181)
Notes: 8-mer, flanks averaged, mean of 2 arrays, mostly near background
Construct (chain): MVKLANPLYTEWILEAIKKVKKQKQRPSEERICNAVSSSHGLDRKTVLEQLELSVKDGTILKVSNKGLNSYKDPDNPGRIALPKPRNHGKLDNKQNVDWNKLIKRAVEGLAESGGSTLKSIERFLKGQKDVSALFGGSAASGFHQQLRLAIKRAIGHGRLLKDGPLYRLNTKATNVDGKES
Oligonucleotide = TGTGTTAA; result = -0.0667
Oligonucleotide = AAGGTAAC; result = -0.102
Oligonucleotide = GGGTCGCA; result = 0.152
Oligonucleotide = CTGTCGCC; result = 0.129
Oligonucleotide = CTCGCCTA; result = -0.045

Further values, each from its own experiment
Substance = PhoQ, residues 284 288 289 292 302 303 SLGVVW; target = PhoP, residues 12 14 15 18 19 NHFIF (Escherichia coli, UniProt P23836); assay = Sort-seq, item: YFP reporter; system = E. coli; setting = PhoQ-PhoP variant library, together with: 10 µM Mg2+; how to read = reference: high Mg2+ state, higher = stronger signaling; quantity = fold induction; result = 2.74

For quick reference, copied from above (study 2):
Oligonucleotide = GCCTAGCACTCACCTTTACTTTCTTTACTGTGCTAGGTCTTGATTCGCTTGACGCTGCTG; result = 2.32 z-score
Oligonucleotide = GCCTAGCACCACCCTTGGAAGTATGACTCTGTGCTAGTCTTGATTCGCTTGACGCTGCTG; result = -0.105 z-score
